Assay results of several laboratories.
Lines come from different studies, so protocols differ. ± marks the error that the study gave.
UCHL1: Ubiquitin carboxyl-terminal hydrolase isozyme L1 (UCHL1, Homo sapiens, UniProt P09936)
UniProt P09936, sequence (whole entry, looked up): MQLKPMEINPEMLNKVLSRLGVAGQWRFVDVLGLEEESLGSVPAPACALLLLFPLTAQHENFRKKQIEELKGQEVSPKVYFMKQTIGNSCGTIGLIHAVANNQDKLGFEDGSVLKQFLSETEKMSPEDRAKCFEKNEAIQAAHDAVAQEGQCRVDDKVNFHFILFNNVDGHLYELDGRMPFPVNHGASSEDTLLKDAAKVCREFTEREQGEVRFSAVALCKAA

For `CCc1ccc(-c2ccc(-c3cc(F)c(F)c(F)c3)c(F)c2)cc1`, “mean serum concentration” read 0.48 ng/mL (human mother-newborn pairs, maternal serum).
Under “mean daily plasma concentration”, `C[C@H](CCC(=O)NCC(=O)O)[C@H]1CC[C@H]2[C@@H]3[C@H](O)C[C@@H]4C[C@H](O[C@@H]5O[C@H](C(=O)O)[C@@H](O)[C@H](O)[C@H]5O)CC[C@]4(C)[C@H]3CC[C@]12C` is recorded as 40 ± 8.3 nM (human, plasma; baseline).
With `COC(=O)C#Cc1ccccc1[N+](=O)[O-]` the labelling was 8.03% (UCHL1; covalent, intact protein LC-MS; 12.5 µM).
The mean change of `C[C@@H](O)CCOC(=O)C[C@@H](C)O` is reported as -4 mmHg (measured: mean arterial pressure; human; oral, dose not given, 60 min post-dose vs pre-dose; baseline: pre-dose).
Under “mean serum concentration”, `CCCC1CCC(c2ccc(OCC)c(F)c2F)CC1` (centres unmarked) is recorded as 1.74 ng/mL (human mother-newborn pairs, cord serum).
For `Cc1ccc(O)c(-n2nc3ccccc3n2)c1`, “mean daily dermal uptake” read 283 ng/kg body weight/day (exposure assessment; human, age 21-60 years; cream).
`C[C@H](CCC(=O)NCC(=O)O)[C@H]1CC[C@H]2[C@@H]3CC[C@@H]4C[C@H](O)CC[C@]4(C)[C@H]3CC[C@]12C` — result for “mean daily plasma concentration”: 32.4 ± 9.1 nM (human, plasma; control).
`CCNCCCNC/C=C\CNCCCNCC`: “mean residence time” 1.18 h (LC-MS/MS; human cancer patients, plasma; intravenous infusion 60 min, 100 mg, median, cycle 1).
`C=CC(=O)N(C)CCOc1c(N)ncnc1-c1cc(F)cc(NC(=O)c2ccc(C3CC3)cc2F)c1C`: “mean residence time” 0.5 h (human, whole blood; oral, 1.5 mg, single ascending dose).
`CCCC1CCC(c2ccc(-c3ccc(CC)cc3)cc2)CC1` (centres unmarked) — result for “mean serum concentration”: 0.66 ng/mL (human mother-newborn pairs, cord serum).
`O=C(O)[C@H]1O[C@@H](Oc2ccc(/C=C/c3cc(O)cc(O)c3)cc2)[C@H](O)[C@@H](O)[C@@H]1O` has a mean concentration of 448 nM (human, plasma).
`COc1cc(C(=O)O)ccc1NC(=O)[C@@H]1N[C@@H](CC(C)(C)C)[C@](C#N)(c2ccc(Cl)cc2F)[C@H]1c1cccc(Cl)c1F` has a mean Ctrough of 2240 ng/mL (human, plasma; 200 mg, steady state, together with: venetoclax 400 mg).
Under “mean daily plasma concentration”, `O=C(O)CCCCCCCCCCCCC(=O)O` is recorded as 58.6 ± 14.1 nM (human, plasma; control).
`N#Cc1ccc2c(c1)[C@H]1CCCN(C(=O)c3ccc4[nH]cnc4c3)[C@H]1C2`: “mean ACTH level” 6.6 pmol/L (human; 40 mg, day 7).
`O=C(O)CCCCCCCCCCC(=O)O`: “mean daily plasma concentration” 33.8 ± 4.5 nM (human, plasma; oral, dose not given, control).
For `CC=CC1CCC(C2CCC(CCC)CC2)CC1` (centres unmarked), “mean serum concentration” read 1.51 ng/mL (human mother-newborn pairs, cord serum).
`C#CC(=O)N1CCC(N2CCN(Cc3ccc(C)cc3)C2=O)C1` (centres unmarked) has a labelling of 10.9% (UCHL1; covalent, intact protein LC-MS; 12.5 µM).
For `CCc1ccc(C(=O)Oc2ccc(C#N)c(F)c2)cc1`, “mean serum concentration” read 4.11 ng/mL (human mother-newborn pairs, female fetuses, cord serum).
`Cc1ccc(Sc2ccccc2N2CCNCC2)c(C)c1` gave a mean Cmax of 3.9 ng/mL (healthy male humans fasted, plasma; oral, 10 mg single).
For `Cn1cc(-c2cn3nccc3c(-c3cnn([C@]4(CC#N)C[C@@H](C#N)C4)c3)n2)cn1`, “mean residence time” read 10.6 h (healthy humans fasted, plasma; 400 mg single dose, geometric mean).

For quick reference, copied from above:
`CCNCCCNC/C=C\CNCCCNCC`: “mean residence time” 1.18 h (LC-MS/MS; human cancer patients, plasma; intravenous infusion 60 min, 100 mg, median, cycle 1).
`C=CC(=O)N(C)CCOc1c(N)ncnc1-c1cc(F)cc(NC(=O)c2ccc(C3CC3)cc2F)c1C`: “mean residence time” 0.5 h (human, whole blood; oral, 1.5 mg, single ascending dose).
`CCCC1CCC(c2ccc(-c3ccc(CC)cc3)cc2)CC1` (centres unmarked) — result for “mean serum concentration”: 0.66 ng/mL (human mother-newborn pairs, cord serum).
